# Assay results of several laboratories.
# A part holds a random share of what one study measured.

# Block 1 — method: protein binding microarray; molecule type: double-stranded DNA, one strand shown; matrix: in vitro; concentration: not given; relative to: not given; direction: higher = stronger binding
# Target: Histone acetyltransferase KAT6A, winged helix 1, GST fusion (KAT6A, Homo sapiens, UniProt Q92794, residues 1-85)
# Setting: 8-mer, flanks averaged, mean of 2 arrays, mostly near background
# Residues (chain): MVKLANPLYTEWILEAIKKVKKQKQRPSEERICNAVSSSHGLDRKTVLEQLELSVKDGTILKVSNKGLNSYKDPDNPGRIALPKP
Strand,E-score
GAAGCCAA,-0.0794
AACTGACT,-0.00844
AATGTTGT,-0.161
TCGCCCGA,0.203
AGTATTAT,-0.258
AGCCACCT,-0.241
ATTACAAG,-0.126
ATTATTCA,-0.181
GCAGGGGC,0.0677

# Block 2 — method: aptamer microarray, sandwich; molecule type: DNA with 2'F-ANA; matrix: in vitro; concentration: 200 nM; added: Cy3 exosite-II aptamer, 400 nM; direction: higher = stronger binding; strand: GGTTGGTGTGGTTGG
# Target: Prothrombin, mature alpha-thrombin (F2, Homo sapiens, UniProt P00734)
# Setting: whole 15-mer aptamer, many near background
Modification,mean fluorescence intensity
2'F-ANA at 1 2 6 11 13,106 a.u.
2'F-ANA at 7 8 11 13 15,541 a.u.
2'F-ANA at 15,615 a.u.
2'F-ANA at 6 8 9 10 11 13 14 15,98.6 a.u.
2'F-ANA at 1 4 6 7 8 12 13 14,77.4 a.u.

# Block 3 — method: protein-binding microarray; molecule type: double-stranded DNA, one strand shown; matrix: in vitro; concentration: 250 nM; setting: 60-bp whole probe; added: salmon DNA 0.4 mg/ml; relative to: random background probes; direction: higher = stronger binding; all sequences stand within: GCCTAGCAC … GTCTTGATTCGCTTGACGCTGCTG
# Target: Interferon regulatory factor 5, full length, phosphomimetic (IRF5, Homo sapiens, UniProt Q13568-2, residues 1-514, K96S/S451D/S453D/S456D/S462D)
Strand,log fluorescence
GACGGACCGCTACTGCTGACGTGCTAG,-0.78 z-score
ATAGGACTGGGGTATCGGTTAGTGCTA,2.21 z-score
TTAGATATCGGGTTTCCATTAGTGCTA,2.68 z-score
TTAGGACTGGGGTTTGGGTTAGTGCTA,-0.322 z-score
GACGGTTTCGACAATCGGGACGTGCTA,5.21 z-score
TTAGGTATCGGTACCGGTTAGTGCTAG,6.61 z-score
GACGGTATCGGTTTTCGGGACGTGCTA,6.8 z-score
TCCTGTATGGATGTGTTTTAGTGCTAG,0.282 z-score

# Other studies, line by line
Substance,target,test,test system,conditions,scale,endpoint,result
"PhoQ, residues 284 288 289 292 302 303 SSCLAV","PhoP, residues 12 14 15 18 19 NQFFI (Escherichia coli, UniProt P23836)","Sort-seq, refers to: YFP reporter",E. coli,"PhoQ-PhoP variant library, added: 10 µM Mg2+","relative to: high Mg2+ state, higher = stronger signaling",fold induction,14.5

# Excerpt of the above (block 3):
Strand,log fluorescence
TCCTGTATGGATGTGTTTTAGTGCTAG,0.282 z-score
TTAGATATCGGGTTTCCATTAGTGCTA,2.68 z-score
